Experimental data from different studies.
A part holds a random share of what one study measured. Values joined by “and” are separate records of one study, mostly repeats; a detail may differ.
Sequence of UniProt Q9UQM7 (whole entry, looked up): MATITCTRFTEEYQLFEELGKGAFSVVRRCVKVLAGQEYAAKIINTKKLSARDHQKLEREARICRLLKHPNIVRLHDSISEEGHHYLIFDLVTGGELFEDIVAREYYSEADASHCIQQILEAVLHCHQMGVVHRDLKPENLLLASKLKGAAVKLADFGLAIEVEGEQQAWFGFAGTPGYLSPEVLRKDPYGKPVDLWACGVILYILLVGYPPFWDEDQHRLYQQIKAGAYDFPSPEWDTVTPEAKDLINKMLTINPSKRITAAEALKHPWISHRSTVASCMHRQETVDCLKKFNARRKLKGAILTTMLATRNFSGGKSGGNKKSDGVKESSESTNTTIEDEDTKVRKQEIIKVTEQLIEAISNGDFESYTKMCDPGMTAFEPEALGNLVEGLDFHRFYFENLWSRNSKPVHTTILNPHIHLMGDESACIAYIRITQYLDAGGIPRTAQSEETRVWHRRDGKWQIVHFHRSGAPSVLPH

Block 1 — sample: 1,9-decadiene/PBS; pH: 7.4
The logD of `CC(C)C[C@@H]1NC(=O)[C@H](CC(C)C)NC(=O)[C@H](CC(C)C)NC(=O)[C@H](C(C)C)NC(=O)[C@@H](Cc2cscn2)NC(=O)[C@@H](CC(C)C)NC(=O)[C@H](C)NC1=O` is reported as 0.0765.
The logD of `CC(C)C[C@@H]1NC(=O)[C@H](CC(C)C)NC(=O)[C@H](CC(C)C)NC(=O)[C@H](CC(C)C)NC(=O)[C@@H](CCC(=O)N2CCCC2)NC(=O)[C@H](Cc2cscn2)NC(=O)[C@H](C)NC1=O` is reported as -1.3.
For `CC(C)C[C@@H]1NC(=O)[C@H](CC(C)C)NC(=O)[C@H](CC(C)C)NC(=O)[C@H](C(C)C)NC(=O)[C@@H](Cc2cscn2)NC(=O)[C@H](C)NC(=O)[C@H](CCC(=O)N2CCCC2)NC1=O`, the logD was -2.08.
The logD of `CC(C)C[C@@H]1NC(=O)[C@H](C)NC(=O)[C@@H](CC(C)C)NC(=O)[C@H](C)NC(=O)[C@H](CC(C)C)NC(=O)[C@H](CC(C)C)NC(=O)[C@@H](CC(C)C)NC1=O` is reported as 0.479.
With `CC(C)C[C@@H]1NC(=O)[C@H](CC(C)C)NC(=O)[C@@H](CC(C)C)NC(=O)[C@H](C)NC(=O)[C@H](C(C)C)NC(=O)[C@H](C)NC(=O)[C@H](C)NC1=O` the logD was -1.67.
`CC(C)C[C@@H]1NC(=O)[C@H](C)NC(=O)[C@H](CCC(=O)N2CCCC2)NC(=O)[C@H](C)NC(=O)[C@H](CC(C)C)NC(=O)[C@H](CC(C)C)NC(=O)[C@H](CC(C)C)NC1=O` has a logD of -1.66.
The logD of `CC(C)C[C@@H]1NC(=O)[C@H](C(C)C)NC(=O)[C@H](CCC(=O)N2CCCC2)NC(=O)[C@H](CC(C)C)NC(=O)[C@@H](Cc2cscn2)NC(=O)[C@H](CC(C)C)NC(=O)[C@@H](CC(C)C)NC1=O` is reported as -0.849.
With `CC(C)C[C@@H]1NC(=O)[C@H](C)NC(=O)[C@H](C)NC(=O)[C@H](CCC(=O)N2CCCC2)NC(=O)[C@H](CC(C)C)NC(=O)[C@H](CC(C)C)NC(=O)[C@@H](CC(C)C)NC1=O` the logD was -2.12.
With `CC(C)C[C@@H]1NC(=O)[C@H](C(C)C)NC(=O)[C@@H](CC(C)C)NC(=O)[C@@H](CC(C)C)NC(=O)[C@@H](Cc2cscn2)NC(=O)[C@H](CC(C)C)NC(=O)[C@@H](CC(C)C)NC1=O` the logD was 0.819.

Block 2 — cell line: mouse MPNST tumor cells; technique: high-content immunofluorescence imaging; measured: nuclear SOX9; concentration: 10 µM; time: 12 h; setting: mean of 2 replicates; reference: DMSO control; direction: higher = more nuclear SOX9
For `CCOC(=O)C1=C(C)NC(=S)NC1c1cccc(O)c1` (stereo not shown), “nuclear SOX9 intensity” read 98.3 % of DMSO.
For `CCOc1cc(C(=O)N2CCC(N3CCN(C)CC3)CC2)ccc1Nc1ncc2c(n1)N(S(C)(=O)=O)c1ccccc1C(=O)N2C`, “nuclear SOX9 intensity” read 124 % of DMSO.
Under “nuclear SOX9 intensity”, `CC1CC(OC(=O)c2ccccc2O)CC(C)(C)C1` (stereo not shown) is recorded as 103 % of DMSO.
`Cc1cc(C)cc(OCC2CNC(=O)O2)c1` (stereo not shown): “nuclear SOX9 intensity” 136 % of DMSO.
For `Nc1c(Br)cc(Br)cc1CN[C@H]1CC[C@H](O)CC1`, “nuclear SOX9 intensity” read 106 % of DMSO and 124 % of DMSO.

Block 3 — read-out: binding; technique: radioligand binding; concentration: 10 µM
Target: 5-hydroxytryptamine receptor 6 (HTR6, Homo sapiens, UniProt P50406)
Sequence of UniProt P50406 (whole entry, looked up): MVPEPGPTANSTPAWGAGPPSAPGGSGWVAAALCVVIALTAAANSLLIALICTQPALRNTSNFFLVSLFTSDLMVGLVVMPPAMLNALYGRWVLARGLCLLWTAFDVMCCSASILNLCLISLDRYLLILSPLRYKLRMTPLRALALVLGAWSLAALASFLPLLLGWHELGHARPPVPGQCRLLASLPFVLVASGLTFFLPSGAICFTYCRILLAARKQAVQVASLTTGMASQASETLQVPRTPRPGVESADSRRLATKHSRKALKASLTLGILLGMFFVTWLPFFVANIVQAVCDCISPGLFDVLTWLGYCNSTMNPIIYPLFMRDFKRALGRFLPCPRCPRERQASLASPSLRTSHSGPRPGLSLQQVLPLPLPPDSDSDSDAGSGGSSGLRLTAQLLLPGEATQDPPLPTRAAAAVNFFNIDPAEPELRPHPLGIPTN
The inhibition of `Cc1cc(-n2nc(Cc3cc(F)cc(C(F)(F)F)c3)nc2C)ccc1C(N)=O` is reported as 6.25%.
`COc1cccc(CNC(=O)c2nc3scc(COCc4ccc(C(=O)O)cc4)c3c(=O)[nH]2)c1` gave an inhibition of 15.8%.
With `Cc1cc(C)c(-n2ccn3nc(-c4cccnc4)cc23)cc1NC(=O)c1cc(C#N)cc(S(F)(F)(F)(F)F)c1` the inhibition was -17.2%.
The inhibition of `O=C(Nc1cccnn1)N1CCC(=Cc2cccc(Oc3ccc(C(F)(F)F)cn3)c2)CC1` is reported as 40.6%.
`COCCc1ccc(-c2c(C)nc3c(N4CCOCC4)ccnn23)cn1` has an inhibition of 18.5%.
For `C[C@@]1(Cc2ccc(C#N)cc2)C(=O)N(c2cc(Cl)cc(Cl)c2)c2ncc(C(=O)NC3(c4nc(C5CCC5)no4)CC3)n21`, the inhibition was 16.1%.
For `O=C1c2ccc(Nc3ccc(F)cc3F)cc2CCc2ccc(OC[C@H](O)CO)cc21`, the inhibition was 14.8%.
For `O=C(NC[C@@H]1[C@H]2CN(C(=O)OCc3cc(C(F)(F)F)cc(C(F)(F)F)c3)C[C@@H]12)c1ccc2[nH]nnc2c1`, the inhibition was 28.9%.
The inhibition of `CC(=O)c1c(NS(C)(=O)=O)c2cc(-c3ccc(Cl)cc3)c(-c3ccc(Cl)cc3Cl)nc2n(C)c1=O` is reported as -11.5%.
`COCc1nc2cnc3cc(-c4c(C)noc4C)c(OC[C@H]4CCNC4)cc3c2n1[C@H](C)c1ccccc1` has an inhibition of -9.08%.
The inhibition of `CCOC(=O)c1cc2cc(-c3cc(C(=O)NCc4ccc(C(=O)O)cc4)nn3C)ccc2[nH]1` is reported as 4.01%.
For `Cc1c(NC(=O)c2cc(C(N)=O)nc3cc(F)ccc23)c(C(F)(F)F)nn1Cc1ccc(C(C)(C)C)cc1`, the inhibition was -0.431%.
The inhibition of `CC(C)(O)c1cncc(-c2nc3ccc(F)cc3n2C2CC2)c1` is reported as 15.6%.

Single results of other studies
`CC(C)=CCC[C@](C)(O[C@@H]1O[C@H](CO[C@@H]2OC[C@@H](O)[C@H](O)[C@H]2O)[C@@H](O)[C@H](O)[C@H]1O)[C@H]1CC[C@]2(C)[C@@H]1[C@H](O)C[C@@H]1[C@@]3(C)CC[C@H](O[C@@H]4O[C@H](CO)[C@@H](O)[C@H](O)[C@H]4O[C@@H]4O[C@H](CO)[C@@H](O)[C@H](O)[C@H]4O)C(C)(C)[C@@H]3CC[C@]12C` has an inhibition of 9% (Calcium/calmodulin-dependent protein kinase type II subunit alpha (CAMK2A, Homo sapiens, UniProt Q9UQM7); enzyme activity, inhibitor; 10 µM).

For quick reference, copied from above (block 2):
For `CCOc1cc(C(=O)N2CCC(N3CCN(C)CC3)CC2)ccc1Nc1ncc2c(n1)N(S(C)(=O)=O)c1ccccc1C(=O)N2C`, “nuclear SOX9 intensity” read 124 % of DMSO.
Under “nuclear SOX9 intensity”, `CC1CC(OC(=O)c2ccccc2O)CC(C)(C)C1` (stereo not shown) is recorded as 103 % of DMSO.
